Published values pooled from the literature.
Each numbered part is a random draw from the data of one study; scales do not carry over between parts. Substitutions count along the parent as printed.
Chain of UniProt Q9H832 (whole entry, looked up): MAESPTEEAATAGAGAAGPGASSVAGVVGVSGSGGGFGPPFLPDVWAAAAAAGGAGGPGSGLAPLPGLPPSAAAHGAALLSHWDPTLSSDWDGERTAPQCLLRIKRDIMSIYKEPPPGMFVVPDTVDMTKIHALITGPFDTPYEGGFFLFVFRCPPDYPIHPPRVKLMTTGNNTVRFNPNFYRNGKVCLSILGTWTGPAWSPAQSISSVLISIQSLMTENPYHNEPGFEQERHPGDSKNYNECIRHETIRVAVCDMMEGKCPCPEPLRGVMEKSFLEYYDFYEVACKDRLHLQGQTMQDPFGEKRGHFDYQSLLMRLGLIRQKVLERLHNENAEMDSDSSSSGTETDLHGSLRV
Chain of UniProt Q9NPD8 (whole entry, looked up): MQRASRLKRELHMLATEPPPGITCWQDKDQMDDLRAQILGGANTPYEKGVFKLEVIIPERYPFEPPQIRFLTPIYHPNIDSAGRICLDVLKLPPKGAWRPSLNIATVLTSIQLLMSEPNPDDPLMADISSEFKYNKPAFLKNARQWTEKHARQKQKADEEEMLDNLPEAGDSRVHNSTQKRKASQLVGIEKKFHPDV
Chain of UniProt P63146 (whole entry, looked up): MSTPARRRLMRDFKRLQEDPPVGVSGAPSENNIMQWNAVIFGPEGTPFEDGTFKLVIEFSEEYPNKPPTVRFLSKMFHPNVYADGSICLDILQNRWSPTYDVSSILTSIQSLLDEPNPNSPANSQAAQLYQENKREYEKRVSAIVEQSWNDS
Chain of UniProt Q712K3 (whole entry, looked up): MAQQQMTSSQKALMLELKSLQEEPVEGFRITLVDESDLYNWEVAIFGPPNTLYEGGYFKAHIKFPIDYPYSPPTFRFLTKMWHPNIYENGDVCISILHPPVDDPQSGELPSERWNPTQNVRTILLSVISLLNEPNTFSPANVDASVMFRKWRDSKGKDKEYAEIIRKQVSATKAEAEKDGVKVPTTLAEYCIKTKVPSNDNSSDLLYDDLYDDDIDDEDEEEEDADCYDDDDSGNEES
Chain of UniProt Q7Z7E8 (whole entry, looked up): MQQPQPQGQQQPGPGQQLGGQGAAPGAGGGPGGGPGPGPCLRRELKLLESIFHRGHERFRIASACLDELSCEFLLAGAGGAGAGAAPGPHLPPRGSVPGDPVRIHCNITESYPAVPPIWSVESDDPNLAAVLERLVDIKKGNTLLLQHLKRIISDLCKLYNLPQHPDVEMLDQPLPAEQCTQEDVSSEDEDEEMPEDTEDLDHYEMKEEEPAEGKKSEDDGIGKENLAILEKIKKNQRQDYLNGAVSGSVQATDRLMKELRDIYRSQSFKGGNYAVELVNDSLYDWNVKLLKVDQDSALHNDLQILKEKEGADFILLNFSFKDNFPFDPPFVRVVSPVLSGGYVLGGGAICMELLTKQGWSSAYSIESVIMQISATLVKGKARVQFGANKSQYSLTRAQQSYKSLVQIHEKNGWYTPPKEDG
Chain of UniProt P68036 (whole entry, looked up): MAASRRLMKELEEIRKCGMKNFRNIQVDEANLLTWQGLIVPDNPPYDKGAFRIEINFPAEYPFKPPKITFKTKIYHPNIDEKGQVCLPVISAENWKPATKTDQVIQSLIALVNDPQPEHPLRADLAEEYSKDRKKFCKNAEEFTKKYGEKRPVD

Study 1 — technique: universal PBM; molecule type: double-stranded DNA, one strand shown; sample: in vitro; concentration: not given; reading: higher = stronger binding
Target: Sal-like protein 4, full length isoform B (SALL4, Homo sapiens, UniProt Q9UJQ4-2, residues 1-616)
Setting: 8-mer, flanks averaged, mean of replicates
Residues (chain): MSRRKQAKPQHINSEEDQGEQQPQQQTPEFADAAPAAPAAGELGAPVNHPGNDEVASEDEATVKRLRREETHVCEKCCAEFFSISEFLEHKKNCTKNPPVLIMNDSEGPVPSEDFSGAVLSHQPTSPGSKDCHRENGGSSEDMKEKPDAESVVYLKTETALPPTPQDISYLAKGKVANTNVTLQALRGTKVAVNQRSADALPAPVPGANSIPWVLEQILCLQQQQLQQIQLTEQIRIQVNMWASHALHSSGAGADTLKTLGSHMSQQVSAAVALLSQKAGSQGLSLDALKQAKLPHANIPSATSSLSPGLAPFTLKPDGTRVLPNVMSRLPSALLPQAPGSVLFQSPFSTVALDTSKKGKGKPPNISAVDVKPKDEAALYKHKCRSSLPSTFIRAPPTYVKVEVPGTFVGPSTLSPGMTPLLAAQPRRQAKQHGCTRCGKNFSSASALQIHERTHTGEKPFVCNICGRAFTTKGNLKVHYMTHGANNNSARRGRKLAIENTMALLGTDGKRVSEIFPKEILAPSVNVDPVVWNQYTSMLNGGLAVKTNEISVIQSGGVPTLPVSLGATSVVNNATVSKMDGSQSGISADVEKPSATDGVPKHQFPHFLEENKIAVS
Strand	E-score
TACTCTGA	0.0883
AGCGAAGG	-0.142
GCAGAGAC	-0.239
CAAAACGC	-0.00236
GCTCGCGA	-0.0693
GACGATGA	0.0131
GAACAGCA	0.0664
CTTCGTGC	-0.22
CGCCGCAC	-0.306
CAGATGCG	-0.12
TCACAAGA	0.0277
AAAAAGTG	0.173
AGGGGGAC	-0.302
AGTGTCAC	-0.0624
AATCTGAT	0.102
CCAGATGC	-0.169
CTTTGGCA	-0.0711

Study 2 — target: CCNB3, cyclin fold, Cln2 fusion (human); technique: yeast growth competition, sequencing; sample: yeast; setting: strong parent motif; relative to: not given; reading: higher = stronger binding
Starting sequence: RBL2 docking peptide (human); STTRRRLFVENDS; partner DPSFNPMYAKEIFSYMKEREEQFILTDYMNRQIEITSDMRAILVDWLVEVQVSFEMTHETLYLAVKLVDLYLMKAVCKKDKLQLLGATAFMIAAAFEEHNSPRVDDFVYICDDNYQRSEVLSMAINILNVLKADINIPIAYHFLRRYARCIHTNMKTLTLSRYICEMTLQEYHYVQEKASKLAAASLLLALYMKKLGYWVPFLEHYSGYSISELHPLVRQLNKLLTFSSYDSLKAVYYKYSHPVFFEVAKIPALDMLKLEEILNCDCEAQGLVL
Substitution	normalised enrichment score
STTRRRLFVCNDS [E10C]	0.853
STTRRRLGVENDS [F8G]	0.0676
STTRRRLFVENRS [D12R]	0.964
STTERRLFVENDS [R4E]	-0.174
STTHRRLFVENDS [R4H]	0.593
STTRRRLFVEKDS [N11K]	0.877
STTRRRLMVENDS [F8M]	-0.337
STTRRMLFVENDS [R6M]	0.53
STTRRRRFVENDS [L7R]	0.227
PTTRRRLFVENDS [S1P]	0.768
STFRRRLFVENDS [T3F]	0.26
STTRPRLFVENDS [R5P]	0.727
STTRRRLFVWNDS [E10W]	-0.0583
STTRQRLFVENDS [R5Q]	0.587
STTKRRLFVENDS [R4K]	0.569
STTRRRLLVENDS [F8L]	0.148
SQTRRRLFVENDS [T2Q]	0.737
SRTRRRLFVENDS [T2R]	1.14
STTRRRTFVENDS [L7T]	-0.205
STTRRRLFVENDR [S13R]	0.985
ITTRRRLFVENDS [S1I]	0.529
SVTRRRLFVENDS [T2V]	0.648

Study 3 — technique: DHFR PCA, deep sequencing; sample: yeast; with: (+)-ABA 0.032 µM; relative to: wild-type fitted maximum; reading: higher = stronger binding
Target: ABI1, truncated, D143A, DHFR fusion (Arabidopsis thaliana)
Setting: methotrexate growth selection, single substitutions
Starting sequence: PYL1, truncated, DHFR fusion (Arabidopsis thaliana); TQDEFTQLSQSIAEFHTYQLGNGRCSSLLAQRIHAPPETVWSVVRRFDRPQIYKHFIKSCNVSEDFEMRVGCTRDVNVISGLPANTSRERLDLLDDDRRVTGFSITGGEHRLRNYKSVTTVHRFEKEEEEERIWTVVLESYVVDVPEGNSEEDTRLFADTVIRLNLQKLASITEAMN; partner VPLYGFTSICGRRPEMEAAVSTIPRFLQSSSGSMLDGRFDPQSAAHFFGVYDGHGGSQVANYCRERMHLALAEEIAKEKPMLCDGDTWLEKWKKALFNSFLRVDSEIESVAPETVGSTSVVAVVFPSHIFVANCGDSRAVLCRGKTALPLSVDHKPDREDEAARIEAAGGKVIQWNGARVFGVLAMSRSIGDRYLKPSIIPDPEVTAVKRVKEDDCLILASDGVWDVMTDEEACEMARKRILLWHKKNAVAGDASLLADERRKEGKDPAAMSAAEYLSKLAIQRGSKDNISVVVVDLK
Substitution	relative binding score [%]
S150F	-10.6
P83V	5.67
Y18G	-3.74
E109I	0.706
T135H	-3.57
T135P	0.318
G102Q	0.108
E152M	5.77
R99H	40.9
E139L	0.939
L29K	-0.139
S87N	-2.89
Q2A	45.6
V118A	2.44
S27L	2.73
R155N	-2.9

Study 4 — Molecule: B1 (RNF111 RING domain); technique: yeast two-hybrid; sample: yeast; setting: mostly zero background; relative to: not given; reading: higher = stronger interaction
B1: RNF111 RING domain (UniProt Q6ZNA4); chain EGTEEDTEEKCTICLSILEEGEDVRRLPCMHLFHQVCVDQWLITNKKCPICRVDIEAQLPSE
target	lacZ reporter activity
UBE2Z UBC core domain (UniProt Q9H832)	0
UBE2T UBC core domain (UniProt Q9NPD8)	0
UBE2R2 UBC core domain (UniProt Q712K3)	0
UBE2L3 UBC core domain (UniProt P68036)	0
BIRC6 UBC core domain (UniProt Q9NR09)	0
UBE2Q1 UBC core domain (UniProt Q7Z7E8)	0
UBE2B UBC core domain (UniProt P63146)	0

Study 5 — target: JDP2, bZIP domain (human); technique: DHFR protein complementation; sample: yeast; relative to: wild-type JUN-FOS pair; reading: higher = stronger binding
Setting: single substitutions, most at no-binding floor
Starting sequence: JUN, bZIP domain (human); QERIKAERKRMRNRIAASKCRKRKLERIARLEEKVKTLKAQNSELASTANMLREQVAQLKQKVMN; partner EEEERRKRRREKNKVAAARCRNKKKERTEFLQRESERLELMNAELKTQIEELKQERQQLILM
Substitution	binding fitness [natural log]
M51V	0.25
I28G	0.352
L52P	-0.97
K39D	0.302
L38T	-0.000648
L52G	-0.906
S43L	0.254
L52C	-0.0338
R53Q	0.209
M51S	0.295
T37W	0.267
E54T	0.246
I28A	0.269
L52F	0.0777
K39W	0.244
L59H	0.0303
R53M	0.217

Further values, each from its own experiment
B2: IAA8 (Arabidopsis thaliana, UniProt Q38826); chain MSYRLLSVDKDELVTSPCLKERNYLGLSDCSSVDSSTIPNVVGKSNLNFKATELRLGLPESQSPERETDFGLLSPRTPDEKLLFPLLPSKDNGSATTGHKNVVSGNKRGFADTWDEFSGVKGSVRPGGGINMMLSPKVKDVSKSIQEERSHAKGGLNNAPAAKAQVVGWPPIRSYRKNTMASSTSKNTDEVDGKPGLGVLFVKVSMDGAPYLRKVDLRTYTSYQQLSSALEKMFSCFTLGQCGLHGAQGRERMSEIKLKDLLHGSEFVLTYEDKDGDWMLVGDVPWEIFTETCQKLKIMKGSDSIGLAPGAVEKSKNKERV
Molecule	partner	technique	relative to	reading	endpoint	result
B2 (IAA8)	IAA14 (Arabidopsis thaliana, UniProt Q38832)	two-hybrid	out of 4 tests	higher = firmer interaction	positive tests	3

Repeated from above (study 1):
Strand	E-score
CGCCGCAC	-0.306
CAGATGCG	-0.12
TCACAAGA	0.0277
AAAAAGTG	0.173
AGGGGGAC	-0.302
AGTGTCAC	-0.0624
AATCTGAT	0.102
